Measured values gathered from unrelated publications.
Parts stem from different laboratories: compare values within a part only.

Sample 1 — effect on: enzyme activity; action: inhibitor; tested at: 20 µM
Target: Replicase polyprotein 1ab, polymerase (rep, Severe acute respiratory syndrome coronavirus 2, UniProt P0DTD1)
With `O=C1OC(CN2CCOCC2)CN1/N=C/c1ccc([N+](=O)[O-])o1` (stereo not shown) the inhibition was -2.09%.
`O=C(O)CCCN1CCC(O[C@@H](c2ccc(Cl)cc2)c2ccccn2)CC1` gave an inhibition of -5.95%.
`COC(=O)c1sccc1S(=O)(=O)Nc1ccc(Nc2ccccc2)cc1OC` has an inhibition of -17%.
For `O=C1CN2Cc3c(ccc(Cl)c3Cl)N=C2N1`, the inhibition was 1.58%.
`Cc1cnc(CNC(=O)c2c(=O)c3ccc(N4CCCN(C)CC4)nc3n3c2sc2ccccc23)cn1` has an inhibition of 3.03%.
`CCN(CC)CCOC(=O)C1(c2ccc([N+](=O)[O-])cc2)CCCC1` gave an inhibition of -0.86%.
With `O=C1CN(/N=C/c2ccc(-c3ccc([N+](=O)[O-])cc3)o2)C(=O)N1` the inhibition was 10.5%.
`CC(=O)[C@H]1CC[C@H]2[C@@H]3CC[C@H]4C[C@H](O)CC[C@]4(C)[C@H]3C(=O)C[C@]12C` gave an inhibition of 1.83%.
`C[C@@]12C(=O)OC(=O)[C@]1(C)[C@H]1CC[C@@H]2O1` has an inhibition of 1.58%.
The inhibition of `CCc1c(C)[nH]c2c1C(=O)C(CN1CCOCC1)CC2` (stereo not shown) is reported as -1.57%.
`O=C(Cc1ccccc1)Nc1nc2ccc(Cl)cc2c2nc(-c3ccco3)nn12` has an inhibition of -2.21%.
`Cc1cc(/C=c2/sc3nc4ccccc4n3c2=O)c(C)n1-c1ccccc1` has an inhibition of -0.81%.
For `NC1(C(=O)O)CC1`, the inhibition was -4.94%.
For `COc1cc(C[C@H](C)[C@H](C)Cc2ccc3c(c2)OCO3)ccc1O`, the inhibition was -2.96%.
For `CN(C)CCCO[C@@H]1[C@H]2OC(C)(C)O[C@H]2O[C@@H]1[C@H](O)CO`, the inhibition was -4.34%.
`c1ccc(-c2cnn3cc(-c4ccc(OCCN5CCOCC5)cc4)cnc23)cc1` gave an inhibition of 1.21%.
For `CC(=O)Nc1ccc(NC(=S)NC(=O)c2ccc(C(C)(C)C)cc2)cc1`, the inhibition was 0.1%.
The inhibition of `CS(=O)(=O)c1ccc(-c2cn3ccccc3n2)cc1` is reported as -0.36%.
With `CN[C@@H](C)C(=O)N[C@H](C(=O)N1CCC[C@H]1c1nc(C(=O)c2ccc(F)cc2)cs1)C1CCCCC1` the inhibition was 0.99%.
The inhibition of `CCn1c(=O)[nH]c2cc(Cl)c(Cl)cc21` is reported as -4.76%.
The inhibition of `C[C@]12CC[C@@H]3c4ccc(OC(=O)N(CCCl)CCCl)cc4CC[C@H]3[C@@H]1CC[C@@H]2OP(=O)(O)O` is reported as 3.88%.
The inhibition of `CCOC(=O)c1ncc2[nH]c3cccc(OC(C)C)c3c2c1C` is reported as 0.85%.
With `C[C@@H]1CN([C@H]2CC[C@](C#N)(c3ccc(F)cc3)CC2)CC[C@]1(C(=O)O)c1ccccc1` the inhibition was -4.61%.
`Cc1o[nH]c(=O)c1C[C@@H](N)C(=O)O` (racemic) gave an inhibition of -4.01%.
With `CC(=O)c1cc([N+](=O)[O-])c(Sc2cccc(Cl)c2Cl)s1` the inhibition was -2.9%.

Sample 2 — method: universal PBM; molecule type: double-stranded DNA, one strand shown; matrix: in vitro; tested at: not given; reading: higher = stronger binding
Target: Sal-like protein 4, full length isoform B (SALL4, Homo sapiens, UniProt Q9UJQ4-2, residues 1-616)
Notes: 8-mer, flanks averaged, mean of replicates
Residues (chain): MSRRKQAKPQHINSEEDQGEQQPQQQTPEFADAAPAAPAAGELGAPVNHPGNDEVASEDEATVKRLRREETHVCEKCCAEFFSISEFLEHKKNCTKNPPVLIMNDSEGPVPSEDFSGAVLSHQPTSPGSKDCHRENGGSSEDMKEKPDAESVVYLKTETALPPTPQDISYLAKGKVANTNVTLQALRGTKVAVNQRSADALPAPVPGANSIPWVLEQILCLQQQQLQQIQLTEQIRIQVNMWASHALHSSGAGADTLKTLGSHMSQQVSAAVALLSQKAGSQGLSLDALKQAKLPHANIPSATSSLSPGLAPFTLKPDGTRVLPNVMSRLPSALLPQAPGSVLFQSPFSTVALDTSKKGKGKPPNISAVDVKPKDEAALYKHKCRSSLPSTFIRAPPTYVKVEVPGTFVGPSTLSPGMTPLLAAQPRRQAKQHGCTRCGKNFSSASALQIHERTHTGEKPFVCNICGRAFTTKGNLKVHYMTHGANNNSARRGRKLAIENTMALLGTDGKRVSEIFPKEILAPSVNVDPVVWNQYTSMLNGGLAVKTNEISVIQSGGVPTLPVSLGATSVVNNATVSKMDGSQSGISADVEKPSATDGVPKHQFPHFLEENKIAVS
For `GGATCTAC`, the E-score was 0.0356.
`CGACGAAA` gave an E-score of 0.144.
The E-score of `GGGTACGA` is reported as -0.207.
With `TTAAACAA` the E-score was 0.123.
The E-score of `AAGGAGGA` is reported as 0.0895.
`GGCACTAC` has an E-score of -0.184.
`GCCGCGAC` has an E-score of -0.332.
`GACTCCGA` has an E-score of -0.261.

Sample 3 — method: protein binding microarray; molecule type: double-stranded DNA, one strand shown; matrix: in vitro; tested at: not given; baseline: not given; reading: higher = stronger binding
Target: Histone acetyltransferase KAT6A, both winged helices, GST fusion (KAT6A, Homo sapiens, UniProt Q92794, residues 1-181)
Notes: 8-mer, flanks averaged, mean of 2 arrays, mostly near background
Construct (chain): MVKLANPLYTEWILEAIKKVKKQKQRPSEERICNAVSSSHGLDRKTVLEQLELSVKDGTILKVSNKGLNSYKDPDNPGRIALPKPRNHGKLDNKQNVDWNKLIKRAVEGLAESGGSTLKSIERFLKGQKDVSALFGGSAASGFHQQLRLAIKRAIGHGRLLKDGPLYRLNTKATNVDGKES
For `ATTTCTCC`, the E-score was -0.0344.
The E-score of `ATCGAGTG` is reported as -0.0121.
With `CTGGCAGC` the E-score was -0.0737.
`CTATCAAA` gave an E-score of -0.131.
With `AATATCCT` the E-score was -0.0792.
`CTCCAAAC` has an E-score of -0.0508.
With `ACTTCGAC` the E-score was -0.00579.
For `TACCCTAA`, the E-score was -0.248.

Sample 4 — method: RNA Bind-n-Seq; molecule type: RNA; matrix: in vitro; tested at: 365 nM; baseline: no-protein control; reading: higher = stronger binding
Target: RNA binding protein fox-1 homolog 2, RRM domain, GST-SBP tag (RBFOX2, Homo sapiens, UniProt O43251-10, residues 100-194)
Notes: natural RNA segment, single round, ends assumed
Target sequence (chain): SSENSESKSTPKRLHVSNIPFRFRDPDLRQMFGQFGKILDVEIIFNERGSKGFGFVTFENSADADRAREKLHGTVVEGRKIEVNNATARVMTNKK
`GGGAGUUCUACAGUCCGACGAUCUUGGAGGCCGCUGGCCUGUGCUCUGGUGCAGAUGCUCUUACCCAGCUUCACUCAGGACCACCUUGGGGUGUAACAGAGGGUGUCAUCCGGCCCCUGGCCCUGGGGAACAUUGGAAUUCUCGGGUGCCAA`: “RBNS enrichment (R)” 0.27.
`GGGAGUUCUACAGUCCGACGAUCGAAAACACAUAUUUUAUGGAUGAGGCGUUUUGGUCUCCCCUGCAGUCGAUUUCUAGAAUCAAGUUUUAGAGUUCGGCUGAUGCAUCUGCCUGGGGACCUCAGAUGGGAGGUGGAAUUCUCGGGUGCCAA`: “RBNS enrichment (R)” 0.709.
`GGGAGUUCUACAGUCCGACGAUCAGUCUUUAAACUUUCUCUUAAUUCUCUUAAAAUGAAAUAGGUAUAUCCAAUAGGUGAUGAAAUACAUUUUUUACAAACAUAGAUGCUUUUUAUUUGUAUGUUGAAUGUACUGGAAUUCUCGGGUGCCAA` — result for “RBNS enrichment (R)”: 0.495.
`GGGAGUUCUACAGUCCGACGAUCCCCCUUUCUUUCUUUUUUUUAAUUAAAGAGCAAAACUUUUUAUUACUUUGUAAUUUAAAAAACUGAAAAAAAAAUUACUGAAGAACUUUGGGGGGAAUUUUGUACUUUUUUGGAAUUCUCGGGUGCCAA`: “RBNS enrichment (R)” 1.08.
`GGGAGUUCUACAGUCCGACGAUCGUUUAAUGAACCUUGAGGAGAAACCGGCUCCUGCGGCUAAUGAGAUGUGCCAGGCCCAGUCUUCCCACCCCAGCUGCUCCACUGGCCACCGCUAGAGCCCCUCUCCCUACUGGAAUUCUCGGGUGCCAA`: “RBNS enrichment (R)” 0.755.
Under “RBNS enrichment (R)”, `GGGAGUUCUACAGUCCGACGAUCGAUCUGGCUUAAUAAGACUUGGUGUGGCUUAUCAGGUCACAUGUCCACCACAUCUUGAUUCUUGCAGGAGGGAAGAUUUGAUCCCUUAGAGAAAUAGCCUGUGGGACUUGUGGAAUUCUCGGGUGCCAA` is recorded as 0.498.
For `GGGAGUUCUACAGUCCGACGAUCUCUUGUCCCCUUUGUAAGAAAGAGAUGCUUGCCAUAGAGAAGGACAUGAGUACAUUAAAAAUAAUUUAAUAGCCACAAUAUGAUGUUCUUUAAGCUGCAAAUUGAGUACAUGGAAUUCUCGGGUGCCAA`, “RBNS enrichment (R)” read 1.17.
`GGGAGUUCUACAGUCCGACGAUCUGGCGCAGCCGAGGCGCAGGCCGAGUGGGCCGCCAGGACCAAGCGAGGUGGACCCCGAAACGGACGGCCCGGAGCCCGCACCAGCCCCGCGCCUACCCGGGCCGCCCCCGUGGAAUUCUCGGGUGCCAA` — result for “RBNS enrichment (R)”: 0.224.

Mixed results — effect on: enzyme activity; action: inhibitor
Target: Replicase polyprotein 1ab, main protease (rep, Severe acute respiratory syndrome coronavirus 2, UniProt P0DTD1)
The inhibition of `NC[C@H](O)c1ccc(O)c(O)c1` is reported as 75.2% (20 µM, hit confirmation, no DTT).
The IC50 of `N=C(N)N=Nc1ccc(NNC(=N)S)cc1` is reported as 9.3 µM.
`CCC[C@H](NC(=O)/C(C#N)=C/c1cccc(Br)n1)c1ccccc1` gave an inhibition of 59.4% (20 µM, hit confirmation, no DTT).

Repeated from above (sample 1):
`c1ccc(-c2cnn3cc(-c4ccc(OCCN5CCOCC5)cc4)cnc23)cc1` gave an inhibition of 1.21%.
`C[C@@]12C(=O)OC(=O)[C@]1(C)[C@H]1CC[C@@H]2O1` has an inhibition of 1.58%.
With `CC(=O)c1cc([N+](=O)[O-])c(Sc2cccc(Cl)c2Cl)s1` the inhibition was -2.9%.
With `O=C1CN(/N=C/c2ccc(-c3ccc([N+](=O)[O-])cc3)o2)C(=O)N1` the inhibition was 10.5%.
With `O=C1OC(CN2CCOCC2)CN1/N=C/c1ccc([N+](=O)[O-])o1` (stereo not shown) the inhibition was -2.09%.
For `NC1(C(=O)O)CC1`, the inhibition was -4.94%.
`O=C(Cc1ccccc1)Nc1nc2ccc(Cl)cc2c2nc(-c3ccco3)nn12` has an inhibition of -2.21%.
